Assay results collected from several papers.
TYK2: Non-receptor tyrosine-protein kinase TYK2 (TYK2, Homo sapiens, UniProt P29597)
Sequence of UniProt P29597 (whole entry, looked up): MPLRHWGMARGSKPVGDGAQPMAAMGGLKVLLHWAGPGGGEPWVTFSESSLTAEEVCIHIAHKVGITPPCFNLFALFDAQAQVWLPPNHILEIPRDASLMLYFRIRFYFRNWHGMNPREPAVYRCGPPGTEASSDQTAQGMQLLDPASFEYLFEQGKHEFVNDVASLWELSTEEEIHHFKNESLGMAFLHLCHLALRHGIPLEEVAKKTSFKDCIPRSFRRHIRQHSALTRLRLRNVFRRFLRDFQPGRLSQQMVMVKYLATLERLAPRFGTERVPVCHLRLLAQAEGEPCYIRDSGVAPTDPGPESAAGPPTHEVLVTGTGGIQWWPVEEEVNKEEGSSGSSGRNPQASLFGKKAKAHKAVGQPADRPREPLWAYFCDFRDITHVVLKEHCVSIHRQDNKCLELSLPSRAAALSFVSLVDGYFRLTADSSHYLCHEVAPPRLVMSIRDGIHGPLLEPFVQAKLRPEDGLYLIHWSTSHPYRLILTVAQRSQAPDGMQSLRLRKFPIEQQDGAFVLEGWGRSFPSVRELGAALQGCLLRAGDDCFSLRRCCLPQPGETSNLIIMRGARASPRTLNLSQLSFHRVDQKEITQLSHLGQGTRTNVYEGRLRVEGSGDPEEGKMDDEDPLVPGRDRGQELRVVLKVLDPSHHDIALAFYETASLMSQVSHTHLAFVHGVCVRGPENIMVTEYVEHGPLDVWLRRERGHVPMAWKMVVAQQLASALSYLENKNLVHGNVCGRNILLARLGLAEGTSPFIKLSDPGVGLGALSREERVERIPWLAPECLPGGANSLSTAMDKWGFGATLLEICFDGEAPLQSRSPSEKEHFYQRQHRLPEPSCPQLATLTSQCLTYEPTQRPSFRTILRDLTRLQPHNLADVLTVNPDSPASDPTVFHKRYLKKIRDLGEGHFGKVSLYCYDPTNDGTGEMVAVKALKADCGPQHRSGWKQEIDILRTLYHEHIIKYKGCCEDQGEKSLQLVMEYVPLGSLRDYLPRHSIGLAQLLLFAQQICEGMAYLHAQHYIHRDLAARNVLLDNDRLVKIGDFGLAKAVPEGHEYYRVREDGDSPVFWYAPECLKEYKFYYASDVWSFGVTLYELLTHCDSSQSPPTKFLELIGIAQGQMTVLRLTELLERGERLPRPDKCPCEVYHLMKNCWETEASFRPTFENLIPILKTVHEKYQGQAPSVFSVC
TYK2 JH1: Non-receptor tyrosine-protein kinase TYK2, JH1 (TYK2, Homo sapiens, UniProt P29597)

C[C@H](NCc1ccc(-c2ccc(C(F)(F)F)cc2)cc1)C(N)=O — inhibition (TYK2; cell-free assay, competition with immobilised ligand; 1 µM): 44%
O=C(CN1CN(c2ccccc2)C2(CCN(C(=O)c3cnc4[nH]ncc4c3)CC2)C1=O)NCC(F)(F)F — inhibition (Non-receptor tyrosine-protein kinase TYK2, JH1 domain (TYK2, Homo sapiens, UniProt P29597); inhibitor; concentration not given): < 50%
CC(C)[C@H]1NC(=O)C[C@H]2/C=C/CCSSC[C@@H](NC1=O)C(=O)N[C@H](Cc1cccc3ccccc13)C(=O)NCC(=O)O2 — inhibition (TYK2; enzyme activity, inhibitor; 10 µM): 6.4%
Nc1ccc(/C=C/C(=O)N2CCc3c(oc4c(-c5ccc(F)cc5)cc(-c5ccc(C(=O)N6CCC(F)(F)CC6)cn5)cc34)C2)cn1 — remaining binding (TYK2 JH1; binding, competition with immobilised ligand; 1 µM): 100%
CS(C)(=O)=Nc1ccc(-c2ccc(-c3nc4cc(O[C@@H]5CO[C@H]6[C@@H]5OC[C@H]6O)[nH]c4cc3F)cc2)cc1 — inhibition (TYK2; enzyme activity, inhibitor; 10 µM): 12%
O=C(N[C@@H]1c2ccccc2C[C@H]1N1CCCC1)c1ccc(-c2ccnc3[nH]ccc23)nc1 — remaining binding (TYK2 JH1; binding, competition with immobilised ligand; 3 µM): 12%
CN(C)[C@H]1C[C@@]23CC[C@@]4(O2)C(=CC[C@]2(C)[C@@H](c5ccc6ccncc6c5)CC[C@H]24)C=C3[C@@H](O)[C@@H]1O — inhibition (Non-receptor tyrosine-protein kinase TYK2, JH2 pseudokinase domain (TYK2, Homo sapiens, UniProt P29597); ATP probe labelling, inhibitor, KiNativ profiling; 0.1 µM): 2.4%
CCOC(=O)[C@@H]1Cc2c(cc([N+](=O)[O-])cc2[N+](=O)[O-])[C@H](O)[C@]12C(=O)Nc1ccc(Br)cc12 — remaining binding (TYK2; KINOMEscan; 100 nM; reference: DMSO control): 72%

A few entries again:
CC(C)[C@H]1NC(=O)C[C@H]2/C=C/CCSSC[C@@H](NC1=O)C(=O)N[C@H](Cc1cccc3ccccc13)C(=O)NCC(=O)O2 — inhibition (TYK2; enzyme activity, inhibitor; 10 µM): 6.4%
